Measurements pooled from the literature.
A part holds a random share of what one study measured.

Set 1
Target: Replicase polyprotein 1ab, main protease (rep, Severe acute respiratory syndrome coronavirus 2, UniProt P0DTD1)
Read-out: enzyme activity
Action: inhibitor
Concentration: 20 µM
Notes: hit confirmation
Structure (SMILES) | inhibition [%]
N=C(N)N=Nc1ccc(NNC(=N)S)cc1 | 93.3
C=C1C(=O)O[C@H]2[C@H]1CC/C(C)=C/CC[C@@]1(C)O[C@@H]21 | 86.2
O=C(Nc1ccc2c(O)cc(S(=O)(=O)O)cc2c1)Nc1ccc2c(O)cc(S(=O)(=O)O)cc2c1 | 31.8
O=c1c(O)c(-c2ccc(O)cc2O)oc2cc(O)cc(O)c12 | 32.7

Set 2
Target: Replicase polyprotein 1ab, nsp13 helicase (rep, Severe acute respiratory syndrome coronavirus 2, UniProt P0DTD1)
Action: inhibitor
Concentration: 20 µM
SMILES | inhibition [%]
CN(C)c1ccc(-c2nc3ncc(Cl)c(N4CCN(CC(=O)Nc5nccs5)CC4)c3[nH]2)cc1 | 7.4
CC(C)(C)CC(C)(C)c1cc(Cc2cc(C(C)(C)CC(C)(C)C)cc(-n3nc4ccccc4n3)c2O)c(O)c(-n2nc3ccccc3n2)c1 | 11.2
Cc1cccc(-c2[nH]c(CNc3ccccc3F)nc2-c2ccc3ncnn3c2)n1 | 0.87
CCc1oc2ccccc2c1C(=O)c1ccc(OCC(=O)O)cc1 | 2.14
COc1ccc(CCNCC(O)COc2cccc(C)c2)cc1OC (centres unmarked) | 4.06
COc1cc2ncnc(Nc3ccc(Cl)cc3F)c2cc1OC | -4.43
CCC(O)(CC(N)=O)c1ccccc1 (centres unmarked) | 0.08
C[C@]12C[C@H](O)[C@H]3[C@@H](CCC4=CC(=O)CC[C@@]43C)[C@@H]1CC[C@@H]2C(=O)CO | 1.46
Cc1cc(Nc2cc(N3CCN(C)CC3)nc(Sc3ccc(NC(=O)C4CC4)cc3)n2)n[nH]1 | 5
CC1(C)OC2(C)C(O)CC1CC2O (centres unmarked) | -1.95

Set 3
Cell line: HEK-293T
Read-out: pseudovirus infection
Method: FDA-approved drug library screen
Organism: VSV pseudotyped with SARS-CoV-2 spike
Concentration: 10 µM
Time: 16 h
Relative to: vehicle-treated
SMILES | GFP-positive cells [%]
CCCCCCOC(=O)N=C(N)c1ccc(NCc2nc3cc(C(=O)N(CCC(=O)OCC)c4ccccn4)ccc3n2C)cc1 | 73.5
CC(=O)Nc1ccc(O)cc1 | 70.6
Clc1ccc(C(Cn2ccnc2)OCc2csc3c(Cl)cccc23)c(Cl)c1 (centres unmarked) | 101

Single results of other studies
rep main protease: Replicase polyprotein 1ab, main protease (rep, Severe acute respiratory syndrome coronavirus 2, UniProt P0DTD1)
SMILES | tested on | assay | test system | conditions | measurement | result
CC(C)(C)[C@@H]1NC(=O)O[C@@H]2CCC[C@H]2OC/C=C/C(F)(F)c2nc3ccccc3nc2O[C@@H]2C[C@@H](C(=O)N[C@]3(C(=O)NS(=O)(=O)C4(C)CC4)C[C@H]3C(F)F)N(C2)C1=O | rep main protease | reporter gene (Gaussia luciferase), inhibitor |  | 20 µM | inhibition | 3.56%
CC[C@H](C)[C@H](NC(=O)[C@H](CC(C)C)NC(=O)[C@H](Cc1c[nH]c2ccccc12)NC(=O)[C@H](CCC(N)=O)NC(=O)[C@@H](NC(=O)[C@H](Cc1ccccc1)NC(=O)[C@H](C)NC(=O)[C@H](CCCCNC(=O)COCCOCCNC(=O)COCCOCCNC(=O)CC[C@H](NC(=O)CCCCCCCCCCCCCCCCCCC(=O)O)C(=O)O)NC(=O)[C@H](CCC(N)=O)NC(=O)[C@H](C)NC(=O)[C@@H](NC(=O)[C@H](CCCCN)NC(=O)[C@H](CC(=O)O)NC(=O)[C@H](CC(C)C)NC(=O)C(C)(C)NC(=O)[C@@H](NC(=O)[C@H](CO)NC(=O)[C@H](Cc1ccc(O)cc1)NC(=O)[C@H](CC(=O)O)NC(=O)[C@H](CO)NC(=O)[C@@H](NC(=O)[C@H](Cc1ccccc1)NC(=O)[C@@H](NC(=O)CNC(=O)[C@H](CCC(=O)O)NC(=O)C(C)(C)NC(=O)[C@@H](N)Cc1ccc(O)cc1)[C@@H](C)O)[C@@H](C)O)[C@@H](C)CC)[C@@H](C)CC)C(C)C)C(=O)N[C@@H](C)C(=O)NCC(=O)NCC(=O)N1CCC[C@H]1C(=O)N[C@@H](CO)C(=O)N[C@@H](CO)C(=O)NCC(=O)N[C@@H](C)C(=O)N1CCC[C@H]1C(=O)N1CCC[C@H]1C(=O)N1CCC[C@H]1C(=O)N[C@@H](CO)C(N)=O |  |  | healthy human | 5.0 mg, single ascending dose | acute pancreatitis | 0%
CC(C)(C)NC(=O)[C@@H]1CN(Cc2cccnc2)CCN1C[C@@H](O)C[C@@H](Cc1ccccc1)C(=O)N[C@H]1c2ccccc2C[C@H]1O | rep main protease | reporter gene (Gaussia luciferase), inhibitor |  | 20 µM | inhibition | 2.43%

A few entries again (set 2):
SMILES | inhibition [%]
CN(C)c1ccc(-c2nc3ncc(Cl)c(N4CCN(CC(=O)Nc5nccs5)CC4)c3[nH]2)cc1 | 7.4
CC(C)(C)CC(C)(C)c1cc(Cc2cc(C(C)(C)CC(C)(C)C)cc(-n3nc4ccccc4n3)c2O)c(O)c(-n2nc3ccccc3n2)c1 | 11.2
